Measurements pooled from the literature.
Target: Ephrin type-B receptor 1 (EPHB1, Homo sapiens, UniProt P54762)
Residues used in one study (P54762 18-984): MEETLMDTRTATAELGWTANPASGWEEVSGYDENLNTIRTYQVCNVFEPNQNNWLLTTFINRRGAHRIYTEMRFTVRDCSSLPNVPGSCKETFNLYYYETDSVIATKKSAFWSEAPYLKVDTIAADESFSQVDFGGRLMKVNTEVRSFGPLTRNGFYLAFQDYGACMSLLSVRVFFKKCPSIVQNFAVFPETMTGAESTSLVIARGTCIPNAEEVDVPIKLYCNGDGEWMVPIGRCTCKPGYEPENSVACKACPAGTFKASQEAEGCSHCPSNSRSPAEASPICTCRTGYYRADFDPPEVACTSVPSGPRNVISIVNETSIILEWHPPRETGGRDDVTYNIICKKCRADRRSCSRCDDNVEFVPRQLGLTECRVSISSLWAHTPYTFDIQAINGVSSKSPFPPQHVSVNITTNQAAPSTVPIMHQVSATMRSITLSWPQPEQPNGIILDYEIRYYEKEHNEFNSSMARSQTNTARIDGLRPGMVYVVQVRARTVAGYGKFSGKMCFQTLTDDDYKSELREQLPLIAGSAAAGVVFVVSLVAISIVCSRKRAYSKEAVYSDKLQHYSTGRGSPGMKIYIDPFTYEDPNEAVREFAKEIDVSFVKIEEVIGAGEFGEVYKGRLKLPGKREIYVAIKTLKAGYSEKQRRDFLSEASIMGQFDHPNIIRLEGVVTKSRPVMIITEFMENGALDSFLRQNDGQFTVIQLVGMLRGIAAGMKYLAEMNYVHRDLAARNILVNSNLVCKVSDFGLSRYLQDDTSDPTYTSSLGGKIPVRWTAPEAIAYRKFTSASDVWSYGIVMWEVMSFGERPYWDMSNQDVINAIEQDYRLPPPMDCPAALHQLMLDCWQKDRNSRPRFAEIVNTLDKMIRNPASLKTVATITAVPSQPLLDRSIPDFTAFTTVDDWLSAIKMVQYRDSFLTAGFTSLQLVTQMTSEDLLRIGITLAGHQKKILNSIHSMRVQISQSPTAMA

COc1c(OCCCN2CCOCC2)ccc2c1N=C(NC(=O)c1cnc(N)nc1)N1CCN=C21 — remaining activity (kinase activity, inhibitor; 1 µM; baseline: untreated control): 86%
O=C(Cc1ccc(OCc2ccccc2)cc1)NC1(C(=O)O)CCN(C(=O)c2ccc(-c3cccc(Cl)c3)cc2)CC1 — activity vs control (enzyme activity, inhibitor; 10 µM): 142%
Cc1cnc2nc1Nc1cccc(c1)COC/C=C/COCc1cc(ccc1OCCN1CCOCC1)N2 — remaining binding (binding; 0.1 µM): 80%
NC(=O)C[C@H]1CCc2sc3ncnc(O[C@H]4CC[C@H](N5CCOCC5)CC4)c3c21 — inhibition (enzyme activity, inhibitor; 10 µM): 12%
Nc1ncc(-c2cc(-c3cnn(CC(F)(F)F)c3)ncc2F)nc1C(=O)NC1CNCC(F)C1 (centres unmarked) — remaining activity (enzyme activity; 1 µM; baseline: DMSO control): 96.3%
CCn1cc(C(=O)O)c(=O)c2c(N)c(F)c(NC3CCCCC3)cc21 — inhibition (kinase activity; 0.1 µM, with: ATP at Km): -3.8%
C=CC(=O)N1CCCC(n2c(=O)c3ncccc3n(Cc3ccc(Oc4ccccc4)cc3)c2=O)C1 (centres unmarked) — remaining binding (cell-free assay, competition with immobilised ligand; 1 µM): 78%
Nc1ncc2c(n1)-c1c([nH]c3ccc(C4=CCOCC4)cc13)CCC2 — remaining binding (binding, competition with immobilised ligand; 1 µM): 100%
CNC(=O)C[C@H](Cc1ccc(C#N)cc1)NC(=O)c1cc(-c2ccc(CN[C@H](C)c3ccc(C)cc3)o2)ccc1Cl — activity vs control (enzyme activity, inhibitor; 1 µM): 123%
C=CC(=O)Nc1cccc(-c2cnc3[nH]cc(C(=O)NC(C)(C)C)c3n2)c1 — inhibition (enzyme activity, inhibitor; 0.1 µM): -2%
CN1CCN(Cc2ccc(-c3ccc(CO[C@H]4CCC[C@@H]4NC(=O)c4cc(-c5cnn(C)c5)cnc4N)cc3)cc2)CC1 — inhibition (enzyme activity, inhibitor; 0.1 µM): 2%
Cc1cccc(O[C@H]2CCC[C@@H](C(C)CNCc3ccncc3)C2)c1 (relative stereo) — inhibition (cell-free assay; 10 µM): -5%
COc1cc(Nc2nccc(-c3cnn4nc(OC)ccc34)n2)cc(C(F)(F)F)c1 — remaining binding (binding, competition with immobilised ligand; 1 µM): 100%
O=C=[N][Ru-4]123([n]4c5ccc(O)cc5c5c6c(c7cc(F)c[n+]1c7c54)C(=O)NC6=O)[S+]1CC[S+]2CC[S+]3CC1 (centres unmarked) — remaining activity (enzyme activity; 100 nM, human enzyme, with: 10 µM ATP; baseline: untreated): 146%
